Results collected from several papers.
Every numbered part comes from another study and shows a few of its results, in no order. “And” joins repeats or separate records; there may be more than shown.
UniProt P28482, sequence (whole entry, looked up): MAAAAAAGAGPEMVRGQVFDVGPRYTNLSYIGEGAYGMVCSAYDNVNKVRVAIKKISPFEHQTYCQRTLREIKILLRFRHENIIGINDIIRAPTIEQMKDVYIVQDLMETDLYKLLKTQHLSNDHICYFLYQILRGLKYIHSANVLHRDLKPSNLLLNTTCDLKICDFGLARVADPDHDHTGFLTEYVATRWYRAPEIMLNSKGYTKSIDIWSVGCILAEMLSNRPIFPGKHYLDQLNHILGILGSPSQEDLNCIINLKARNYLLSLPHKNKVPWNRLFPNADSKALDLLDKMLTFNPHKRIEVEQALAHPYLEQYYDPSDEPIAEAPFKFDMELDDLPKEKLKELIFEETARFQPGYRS
UniProt P27361, sequence (whole entry, looked up): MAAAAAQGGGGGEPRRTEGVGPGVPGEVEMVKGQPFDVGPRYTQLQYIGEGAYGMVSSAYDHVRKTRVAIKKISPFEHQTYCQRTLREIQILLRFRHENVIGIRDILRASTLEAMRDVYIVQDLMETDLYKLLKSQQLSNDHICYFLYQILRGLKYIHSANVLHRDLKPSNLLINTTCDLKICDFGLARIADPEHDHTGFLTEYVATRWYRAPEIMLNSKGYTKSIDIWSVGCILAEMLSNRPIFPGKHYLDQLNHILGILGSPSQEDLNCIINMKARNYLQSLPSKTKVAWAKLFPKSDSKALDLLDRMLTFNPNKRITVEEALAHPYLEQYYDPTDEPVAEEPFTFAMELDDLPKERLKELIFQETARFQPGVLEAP
UniProt P50613, sequence (whole entry, looked up): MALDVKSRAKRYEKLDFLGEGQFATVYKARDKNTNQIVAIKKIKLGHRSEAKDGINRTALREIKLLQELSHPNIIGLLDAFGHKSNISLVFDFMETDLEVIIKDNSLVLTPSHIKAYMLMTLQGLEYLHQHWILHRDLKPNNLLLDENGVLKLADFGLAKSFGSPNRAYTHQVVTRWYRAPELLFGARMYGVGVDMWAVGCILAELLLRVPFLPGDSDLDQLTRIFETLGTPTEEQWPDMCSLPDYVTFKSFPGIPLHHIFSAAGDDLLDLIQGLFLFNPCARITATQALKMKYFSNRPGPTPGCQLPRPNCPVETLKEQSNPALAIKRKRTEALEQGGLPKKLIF
UniProt P49841, sequence (whole entry, looked up): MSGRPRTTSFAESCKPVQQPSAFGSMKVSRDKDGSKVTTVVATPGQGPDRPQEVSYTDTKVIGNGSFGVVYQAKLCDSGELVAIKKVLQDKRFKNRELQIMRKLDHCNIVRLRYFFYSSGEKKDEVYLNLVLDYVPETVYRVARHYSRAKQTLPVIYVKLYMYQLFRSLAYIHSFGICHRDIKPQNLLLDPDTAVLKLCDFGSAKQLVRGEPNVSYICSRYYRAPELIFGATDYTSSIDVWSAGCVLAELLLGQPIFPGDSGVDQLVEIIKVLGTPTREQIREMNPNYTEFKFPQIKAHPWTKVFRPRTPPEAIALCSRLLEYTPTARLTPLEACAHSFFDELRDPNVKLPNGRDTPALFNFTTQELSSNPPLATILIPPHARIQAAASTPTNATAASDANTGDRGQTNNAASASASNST

Series 1
Cell line: mouse MPNST tumor cells
Technique: high-content nuclear imaging
Measured: cell number
Tested at: 10 µM
Time: 12 h
Notes: mean of 2 replicates
Reference: plate mean
Direction: higher = more cells
For `N#Cc1c(N)nc(SCc2ncc[nH]2)c(C#N)c1-c1ccc(O)cc1`, the nuclei count was 1.22 z-score.
With `COc1ccc(Oc2c(Cl)cnn(C3c4ccccc4-c4ccccc43)c2=O)cc1` the nuclei count was -2.43 z-score.
`O=C(CCNNC(=O)c1ccncc1)NCc1ccccc1` gave a nuclei count of 1.05 z-score.
`CN1CCCN=C1COC(=O)C(O)(c1ccccc1)C1CCCCC1` (stereo not shown) has a nuclei count of 0.553 z-score.
`CN(C)CCOC(c1ccccc1)c1ccccc1` gave a nuclei count of 2.28 z-score.
With `COc1cc(OC)c(NC(=O)Nc2cc(C)on2)cc1Cl` the nuclei count was 2.27 z-score.
`NS(=O)(=O)c1cc2c(cc1Cl)NC(C1CC3C=CC1C3)NS2(=O)=O` (stereo not shown) gave a nuclei count of 1.22 z-score.
For `CC1CCc2nc(N)c(C#N)c(-c3cccnc3)c2C1` (stereo not shown), the nuclei count was 1.82 z-score.

Series 2
SMILES: C[C@H](NC(=O)Nc1cc2[nH]ncc2c(CO)n1)c1ccccn1
SGK1: Serine/threonine-protein kinase Sgk1 (SGK1, Homo sapiens, UniProt O00141)
UniProt O00141, sequence (whole entry, looked up): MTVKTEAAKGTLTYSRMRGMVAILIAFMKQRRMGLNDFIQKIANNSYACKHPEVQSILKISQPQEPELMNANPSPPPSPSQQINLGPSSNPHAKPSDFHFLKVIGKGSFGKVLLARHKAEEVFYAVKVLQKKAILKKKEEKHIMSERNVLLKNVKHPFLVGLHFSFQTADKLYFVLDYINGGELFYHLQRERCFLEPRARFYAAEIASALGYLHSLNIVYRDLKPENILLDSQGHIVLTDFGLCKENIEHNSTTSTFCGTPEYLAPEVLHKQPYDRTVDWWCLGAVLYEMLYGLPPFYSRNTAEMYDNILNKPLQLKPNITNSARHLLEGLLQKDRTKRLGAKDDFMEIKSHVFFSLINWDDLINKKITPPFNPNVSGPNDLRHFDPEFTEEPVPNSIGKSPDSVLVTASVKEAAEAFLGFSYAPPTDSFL
GSK3A: Glycogen synthase kinase-3 alpha (GSK3A, Homo sapiens, UniProt P49840)
UniProt P49840, sequence (whole entry, looked up): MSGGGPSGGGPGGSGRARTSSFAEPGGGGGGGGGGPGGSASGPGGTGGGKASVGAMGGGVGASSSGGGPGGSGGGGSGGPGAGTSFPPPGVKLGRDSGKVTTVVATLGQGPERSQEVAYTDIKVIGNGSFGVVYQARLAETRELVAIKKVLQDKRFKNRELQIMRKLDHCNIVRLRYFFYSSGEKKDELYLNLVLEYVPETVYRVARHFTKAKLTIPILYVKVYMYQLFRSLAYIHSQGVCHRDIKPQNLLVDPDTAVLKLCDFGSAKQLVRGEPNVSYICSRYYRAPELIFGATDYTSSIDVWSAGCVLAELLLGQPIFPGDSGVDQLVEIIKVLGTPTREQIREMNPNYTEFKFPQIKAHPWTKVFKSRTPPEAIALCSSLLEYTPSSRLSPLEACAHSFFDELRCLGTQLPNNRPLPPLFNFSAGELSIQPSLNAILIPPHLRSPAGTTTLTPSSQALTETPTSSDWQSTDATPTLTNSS
MAPK3 (Homo sapiens, UniProt P27361); target engagement, NanoBRET; live cells — EC50: 4.15 µM and 8.24 µM and 7.62 µM.
SGK1; target engagement in cells, BRET — EC50: over 50 µM.
It gave 23.4 µM and 11.9 µM and 18.6 µM for EC50 (MAPK1 (Homo sapiens, UniProt P28482); target engagement, NanoBRET; live cells).
SGK1; target engagement, NanoBRET; live cells — EC50: over 50 µM.
It gave over 50 µM for EC50 (GSK3A; target engagement, NanoBRET; live cells).
GSK3A; target engagement in cells, BRET — EC50: over 50 µM.
GSK3B (Homo sapiens, UniProt P49841); target engagement, NanoBRET — EC50: over 50 µM.

Series 3
Target: DNA polymerase theta, helicase domain (POLQ, Homo sapiens, UniProt O75417)
UniProt O75417, sequence (whole entry, looked up): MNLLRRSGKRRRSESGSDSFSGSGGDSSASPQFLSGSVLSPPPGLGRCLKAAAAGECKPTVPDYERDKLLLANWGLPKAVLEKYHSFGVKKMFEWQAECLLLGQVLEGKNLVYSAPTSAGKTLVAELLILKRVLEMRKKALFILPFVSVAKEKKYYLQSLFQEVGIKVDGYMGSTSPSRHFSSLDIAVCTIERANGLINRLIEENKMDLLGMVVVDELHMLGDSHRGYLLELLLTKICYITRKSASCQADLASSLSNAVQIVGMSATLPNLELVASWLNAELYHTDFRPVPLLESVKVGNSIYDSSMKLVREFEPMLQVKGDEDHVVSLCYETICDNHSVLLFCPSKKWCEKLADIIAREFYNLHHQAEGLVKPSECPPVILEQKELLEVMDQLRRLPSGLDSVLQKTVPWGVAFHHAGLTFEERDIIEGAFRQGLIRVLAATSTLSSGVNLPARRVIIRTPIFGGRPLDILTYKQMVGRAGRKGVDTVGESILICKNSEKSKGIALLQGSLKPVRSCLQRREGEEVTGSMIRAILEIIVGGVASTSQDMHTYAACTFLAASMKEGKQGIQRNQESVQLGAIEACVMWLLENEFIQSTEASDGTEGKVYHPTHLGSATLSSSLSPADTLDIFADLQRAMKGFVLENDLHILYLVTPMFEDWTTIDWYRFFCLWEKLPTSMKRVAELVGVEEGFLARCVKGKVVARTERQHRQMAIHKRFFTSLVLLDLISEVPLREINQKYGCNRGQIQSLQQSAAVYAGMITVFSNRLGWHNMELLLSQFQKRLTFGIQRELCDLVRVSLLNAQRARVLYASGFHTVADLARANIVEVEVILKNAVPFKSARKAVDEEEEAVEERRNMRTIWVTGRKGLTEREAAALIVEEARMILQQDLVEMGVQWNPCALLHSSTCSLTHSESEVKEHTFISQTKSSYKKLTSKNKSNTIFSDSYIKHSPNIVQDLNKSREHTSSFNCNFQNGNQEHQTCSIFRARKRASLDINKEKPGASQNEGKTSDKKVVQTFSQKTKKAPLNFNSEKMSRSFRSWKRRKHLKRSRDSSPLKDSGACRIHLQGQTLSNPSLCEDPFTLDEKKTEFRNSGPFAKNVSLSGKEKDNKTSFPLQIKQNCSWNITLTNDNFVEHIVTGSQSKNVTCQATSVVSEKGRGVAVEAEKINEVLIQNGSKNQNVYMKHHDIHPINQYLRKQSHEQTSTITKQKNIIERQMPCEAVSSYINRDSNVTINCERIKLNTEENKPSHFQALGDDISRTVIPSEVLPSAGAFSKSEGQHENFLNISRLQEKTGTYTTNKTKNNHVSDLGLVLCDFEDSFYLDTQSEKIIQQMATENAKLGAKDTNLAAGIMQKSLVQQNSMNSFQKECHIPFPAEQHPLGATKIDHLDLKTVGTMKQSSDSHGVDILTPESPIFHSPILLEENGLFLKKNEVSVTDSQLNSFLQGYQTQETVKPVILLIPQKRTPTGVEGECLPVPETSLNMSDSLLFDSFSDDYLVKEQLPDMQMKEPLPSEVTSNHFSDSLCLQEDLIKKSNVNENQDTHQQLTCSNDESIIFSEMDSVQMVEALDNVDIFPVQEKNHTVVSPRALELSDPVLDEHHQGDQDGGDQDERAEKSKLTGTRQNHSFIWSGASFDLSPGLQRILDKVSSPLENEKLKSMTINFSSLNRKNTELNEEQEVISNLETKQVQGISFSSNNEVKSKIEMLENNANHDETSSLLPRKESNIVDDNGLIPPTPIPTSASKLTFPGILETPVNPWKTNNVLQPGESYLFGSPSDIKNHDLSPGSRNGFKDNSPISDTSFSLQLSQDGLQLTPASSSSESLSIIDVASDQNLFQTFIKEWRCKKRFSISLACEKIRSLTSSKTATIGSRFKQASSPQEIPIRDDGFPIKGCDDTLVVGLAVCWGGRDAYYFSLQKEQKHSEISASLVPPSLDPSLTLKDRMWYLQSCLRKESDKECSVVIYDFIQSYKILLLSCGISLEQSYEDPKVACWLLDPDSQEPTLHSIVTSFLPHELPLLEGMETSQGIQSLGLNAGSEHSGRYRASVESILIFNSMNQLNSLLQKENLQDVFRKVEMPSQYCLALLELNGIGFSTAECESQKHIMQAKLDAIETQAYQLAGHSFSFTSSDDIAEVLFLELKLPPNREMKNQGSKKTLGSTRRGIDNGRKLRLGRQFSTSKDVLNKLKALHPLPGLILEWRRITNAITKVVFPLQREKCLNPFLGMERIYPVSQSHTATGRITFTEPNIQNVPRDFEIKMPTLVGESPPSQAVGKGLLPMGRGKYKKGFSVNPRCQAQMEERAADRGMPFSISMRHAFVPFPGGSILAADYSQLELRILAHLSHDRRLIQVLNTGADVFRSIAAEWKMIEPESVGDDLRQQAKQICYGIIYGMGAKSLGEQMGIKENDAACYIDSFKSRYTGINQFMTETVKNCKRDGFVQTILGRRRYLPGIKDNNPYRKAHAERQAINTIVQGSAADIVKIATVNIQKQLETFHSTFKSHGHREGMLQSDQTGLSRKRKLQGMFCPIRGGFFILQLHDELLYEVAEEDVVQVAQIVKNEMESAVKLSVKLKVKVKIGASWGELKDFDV
Effect on: ATPase activity
Tested at: concentration not given
Notes: average
Added: with ssDNA
For `COC(=O)c1cc(Cl)ccc1NC(=O)CSc1ncc(S(=O)(=O)c2ccc(Br)cc2)c(=O)[nH]1`, the remaining activity was 36.7%.
`COc1cccc2c1C(=O)c1c(O)c3c(c(O)c1C2=O)C[C@@](O)(C(=O)CO)C[C@@H]3O[C@H]1C[C@H](N)[C@@H](O)[C@H](C)O1` gave a remaining activity of 46.5%.
`CCOc1cccc2c1N[C@@H](c1ccc(C(=O)O)cc1)[C@H]1CC=C[C@@H]21` gave a remaining activity of 48.9%.
For `Cc1ccc(-c2n[nH]c3c2C(c2cccc(O)c2)N(c2ccc(C(=O)O)cc2)C3=O)cc1` (stereo not shown), the remaining activity was 63.8%.
With `O=C(Nc1cc(-c2ccccc2)sc1C(=O)O)c1cccc(F)c1` the remaining activity was 60.7%.
The remaining activity of `C/C(O)=C(\C#N)C(=O)Nc1ccc(C(F)(F)F)cc1` is reported as 67.6%.
With `CCc1ccc(/C=C2/SC(=S)NC2=O)cc1` the remaining activity was 46.6%.

Series 4
Compound: CC(=O)O/N=C1/C(c2c(O)[nH]c3cc(Br)ccc23)=Nc2ccccc21
Effect on: enzyme activity
Mode: inhibitor
Tested at: 0.5 µM
Reference: control
It gave 96.7% for remaining activity (DYRK4 (Homo sapiens, UniProt Q9NR20)).
It gave 55.4% for remaining activity (Aurora kinase A (AURKA, Homo sapiens, UniProt O14965)).
For NTRK3 (Homo sapiens, UniProt Q16288): remaining activity read 15.1%.
SLK (Homo sapiens, UniProt Q9H2G2) — remaining activity: 80.2%.
It gave 85.9% for remaining activity (PTK2B (Homo sapiens, UniProt Q14289)).
For PRKD1 (Homo sapiens, UniProt Q15139): remaining activity read 82.1%.
RET (Homo sapiens, UniProt P07949) — remaining activity: 6.58%.
CDK7 (Homo sapiens, UniProt P50613) — remaining activity: 91.1%.
CAMK1G (Homo sapiens, UniProt Q96NX5) — remaining activity: 101%.
It gave 104% for remaining activity (GRK5 (Homo sapiens, UniProt P34947)).
ROCK2 (Homo sapiens, UniProt O75116) — remaining activity: 91.7%.
ROS1 (Homo sapiens, UniProt P08922) — remaining activity: 105%.
It gave 85.4% for remaining activity (PKN2 (Homo sapiens, UniProt Q16513)).
MAPK10 (Homo sapiens, UniProt P53779) — remaining activity: 83%.
For MAP3K8 (Homo sapiens, UniProt P41279): remaining activity read 104%.
It gave 22.3% for remaining activity (Cyclin-dependent kinase 2, with cyclin A (CDK2, Homo sapiens, UniProt P24941)).
It gave 79.1% for remaining activity (CAMK1D (Homo sapiens, UniProt Q8IU85)).
EGFR (Homo sapiens, UniProt P00533) — remaining activity: 91.1%.
For MAP3K2 (Homo sapiens, UniProt Q9Y2U5): remaining activity read 93.1%.
The remaining activity was 76.7% (HIPK3 (Homo sapiens, UniProt Q9H422)).
It gave 95.4% for remaining activity (DMPK (Homo sapiens, UniProt Q09013)).

Single results of other studies
Effect on: binding
Mode: competitor
Technique: NanoBRET
Cells: HEK293
`CN1CCC[C@H]1COc1nc2c(c(N3CCN(S(C)(=O)=O)[C@@H](CC#N)C3)n1)CCN(c1cccc3cccc(Cl)c13)C2` gave a normalized BRET of 96.7% and 90.1% and 77.7% (GTPase KRas (KRAS, Homo sapiens, UniProt P01116, Q61R); 45.7 nM).
`C=C(F)C(=O)N1CCN(c2nc(OC[C@@H]3CCCN3C)nc3c2CCN(c2cccc4cccc(Cl)c24)C3)C[C@@H]1CC#N` has a normalized BRET of 89.9% (GTPase HRas (HRAS, Homo sapiens, UniProt P01112); 39.1 nM).
`CC(=O)N1CCN(c2nc(OC[C@@H]3CCCN3C)nc3c2CCN(c2cccc4cccc(Cl)c24)C3)C[C@@H]1CC#N` has a normalized BRET of 28.1% and 20.8% and 26.1% (GTPase KRas (KRAS, Homo sapiens, UniProt P01116, G13D); 3.7 µM).

A few entries again (series 2):
It gave over 50 µM for EC50 (GSK3A; target engagement, NanoBRET; live cells).
MAPK3 (Homo sapiens, UniProt P27361); target engagement, NanoBRET; live cells — EC50: 4.15 µM and 8.24 µM and 7.62 µM.
SGK1; target engagement in cells, BRET — EC50: over 50 µM.
GSK3B (Homo sapiens, UniProt P49841); target engagement, NanoBRET — EC50: over 50 µM.
GSK3A; target engagement in cells, BRET — EC50: over 50 µM.
SGK1; target engagement, NanoBRET; live cells — EC50: over 50 µM.
